Assay results gathered from unrelated publications.
Every numbered part comes from another study and shows a few of its results, in no order. Substitutions count along the parent as printed.

Study 1
Target: Interferon regulatory factor 3, full length, phosphomimetic (IRF3, Homo sapiens, UniProt Q14653, residues 1-427, S386D/S396D/S398D/S402D/T404D/S405D)
UniProt Q14653, sequence (whole entry, unmodified, looked up): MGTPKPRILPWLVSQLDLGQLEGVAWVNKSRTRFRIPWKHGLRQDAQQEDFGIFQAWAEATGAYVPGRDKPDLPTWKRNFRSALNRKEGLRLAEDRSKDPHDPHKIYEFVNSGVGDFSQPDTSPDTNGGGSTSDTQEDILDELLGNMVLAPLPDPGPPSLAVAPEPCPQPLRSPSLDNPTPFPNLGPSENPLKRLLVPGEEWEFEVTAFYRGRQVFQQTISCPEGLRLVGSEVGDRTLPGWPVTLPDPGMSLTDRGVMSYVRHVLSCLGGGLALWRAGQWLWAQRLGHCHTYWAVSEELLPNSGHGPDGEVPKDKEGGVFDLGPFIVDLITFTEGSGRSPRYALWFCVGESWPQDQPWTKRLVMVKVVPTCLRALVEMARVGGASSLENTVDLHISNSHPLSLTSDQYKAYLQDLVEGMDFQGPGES
Technique: protein-binding microarray
Molecule type: double-stranded DNA, one strand shown
Medium: in vitro
Tested at: 2540 nM top
Notes: 60-bp whole probe
Together with: salmon DNA 0.4 mg/ml
Baseline: random background probes
Direction: higher = stronger binding
Constant ends, left off below: GCCTAGCAC … GTCTTGATTCGCTTGACGCTGCTG
Sequence	fitted relative affinity [z-score]
GACGATATCGGGATTCGAGACGTGCTA	0.343
TCCTATGTCATTTACATTTTGTGCTAG	0.98
GACGGTATCGACAGTGGGGACGTGCTA	0.0606
TTAGATTTCAGTCTCCATTAGTGCTAG	2.92
TCAGTTTTCTCTCCCATACTGTGCTAG	2.13
CTTTCTCCCAAGTCTTGTTTTGTGCTA	5.76
TCACATTTCTGTTTTTGACTGTGCTAG	2.57
CCAGTTTTCTTTTCATTACTGTGCTAG	5.75
GACGAACTGGGGACTGAAGACGTGCTA	-0.449
GACGGACTGAGGTATCGGGACGTGCTA	-0.152
TCAGAAATCAGTATGTTACTGTGCTAG	0.236
TTAGGTTTGGGTCTCGGTTAGTGCTAG	-0.0525
TTAGGTTTCCACTTTCGGTTAGTGCTA	5.55
AGAGAATGTGGAGAAATAGGGTGCTAG	-0.577
TCAACCATCCCTTATAAAACTGTGCTA	0.459

Study 2
Target: Ras GTPase-activating protein-binding protein 1, C-terminal RGG region (G3BP1, Homo sapiens, UniProt Q13283)
UniProt Q13283, sequence (whole entry, looked up): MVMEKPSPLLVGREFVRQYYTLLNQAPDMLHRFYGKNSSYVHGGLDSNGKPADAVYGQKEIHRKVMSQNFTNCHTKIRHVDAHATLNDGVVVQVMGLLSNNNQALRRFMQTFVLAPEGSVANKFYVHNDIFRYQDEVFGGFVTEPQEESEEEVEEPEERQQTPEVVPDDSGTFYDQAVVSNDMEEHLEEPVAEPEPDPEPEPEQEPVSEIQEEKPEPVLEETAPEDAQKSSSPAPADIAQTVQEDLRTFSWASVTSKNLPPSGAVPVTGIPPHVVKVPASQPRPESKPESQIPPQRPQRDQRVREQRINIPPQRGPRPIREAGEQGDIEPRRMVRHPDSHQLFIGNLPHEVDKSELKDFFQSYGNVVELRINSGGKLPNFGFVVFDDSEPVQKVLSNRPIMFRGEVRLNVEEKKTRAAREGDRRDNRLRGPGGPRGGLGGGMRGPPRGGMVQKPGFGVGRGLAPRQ
Technique: RNA Bind-n-Seq
Molecule type: RNA
Medium: in vitro
Tested at: 1 µM
Notes: whole 134-nt RNA, ends assumed
Together with: 150 mM KCl
Baseline: input library
Direction: higher = stronger binding
Sequence	log2 enrichment
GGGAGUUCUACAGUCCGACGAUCGCAGGAAGUAAAAACAAAUGGAAAUGCUUCGGAUUGUGGCAGGGGUGGGGGUUGCUAAGGAAAGGGUGGGAUGGGAGUGGGUAAAGAGUUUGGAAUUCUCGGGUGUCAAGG	1.78
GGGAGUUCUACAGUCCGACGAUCGCAGGAAGUAAAUACAAAUGGAAAUGCUUCGGAUAGUGGCAGGGGUGGGGGUUGCUAAGGAAAGGGUGGGAUGGGAGUGGGUAAAGAGUUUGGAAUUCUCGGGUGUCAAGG	1.68
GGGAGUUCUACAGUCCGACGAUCACCAUGCAGGUGGGCAUCUUUGAGAAGUGGGGCAAGGGGGGGAUAGGGAGGGGGGUAACACUUUGGGAACAGGUGGUCCCAGGUCGUUUCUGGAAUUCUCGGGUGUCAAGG	-1.12
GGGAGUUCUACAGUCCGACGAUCGUCCUGUGCUACACAUCGUAUGUACCGAAUCGGGGAGGGGUUUGGGGUUUUUUUGGGGAAAGUAUUAUGUUACGCCGUUCGGAUCUGCACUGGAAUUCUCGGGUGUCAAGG	2.32
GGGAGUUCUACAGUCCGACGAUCUCAAGUCCUGUGCUACACAUCGUAUGUACCGAAUCGGUUUUUUUGGUGGAAAGGAAAGUAUUAUGUUACGCCGUUCGGAUCUGCACUUCCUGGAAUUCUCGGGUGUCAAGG	-1.19
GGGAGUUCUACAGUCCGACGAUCUAACUUUAGAGGAGGAUCUGAUGGAUAUGGCAGUGGACAUGGAUUUGGGGAUGGCUAUAAUGGGUAUGGAGGAGGACCUGGAGGUGGCAAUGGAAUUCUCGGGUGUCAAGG	-1.08
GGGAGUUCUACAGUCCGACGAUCGUCCUGUGCUACACAUCGUAUGUACCGAAUCGGCCCCCGGGGCCCCCGGGGCCCCCGGAAAGUAUUAUGUUACGCCGUUCGGAUCUGCACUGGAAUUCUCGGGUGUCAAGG	-1.17
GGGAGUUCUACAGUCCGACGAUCUGGGAGGUGGAUUUUGUUUAUUUUUUUAGCUCAUUUCCAGGGGUGGGAGUUUUUUUUUAAUAUGUGUCAUGAAUAAAGUUGUUUUUGAAAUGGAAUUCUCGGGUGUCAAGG	3.15
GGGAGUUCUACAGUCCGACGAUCUCCUGUGCUACACAUCGUAUGUACCGAAUCGGGGAAAAAAGGGGAAAAAAGGAAAAAAGGAAAGUAUUAUGUUACGCCGUUCGGAUCUGCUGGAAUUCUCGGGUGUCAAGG	-1.2

Study 3
Target: Hepatocyte nuclear factor 3-alpha (Foxa1, Mus musculus, UniProt P35582, residues 1-468, full length assumed)
Technique: EMSA with sequencing
Molecule type: double-stranded DNA, one strand shown
Medium: in vitro
Tested at: 10 and 20 nM
Notes: whole designed probe, mean of two concentrations, ends assumed
Baseline: negative control set to 0
Direction: higher = stronger binding
Construct (chain): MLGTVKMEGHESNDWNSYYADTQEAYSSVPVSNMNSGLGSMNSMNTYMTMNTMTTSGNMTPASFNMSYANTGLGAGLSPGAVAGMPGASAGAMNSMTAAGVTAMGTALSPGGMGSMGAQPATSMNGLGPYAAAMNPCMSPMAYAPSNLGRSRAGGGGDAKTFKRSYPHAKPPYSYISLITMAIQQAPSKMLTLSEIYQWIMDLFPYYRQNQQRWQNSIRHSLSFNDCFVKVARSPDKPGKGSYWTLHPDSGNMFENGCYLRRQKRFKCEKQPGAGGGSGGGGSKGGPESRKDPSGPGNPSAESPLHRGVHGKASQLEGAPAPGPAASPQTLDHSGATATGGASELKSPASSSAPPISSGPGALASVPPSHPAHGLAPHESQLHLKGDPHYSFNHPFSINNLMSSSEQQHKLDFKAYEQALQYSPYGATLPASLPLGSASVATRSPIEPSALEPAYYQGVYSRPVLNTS
Sequence	normalised bound fraction [ratio]
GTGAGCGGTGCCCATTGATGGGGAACATCTTCCCCCTCTTCCTTGCCCCACCAGTTTGCCTTCCCGGGTATATTGGAGATAGGAAATTAATATAAGCCGGCATTCGTTAACCCTCTTCTGGCGCAAACTGCACATTGGTCTGGATGAATCATGGTCCTTTGGCGACGCCAGGCTCCGGGAGAGCAAAGCACCGTGTCAGGGCCATGATCCGGGGTGGCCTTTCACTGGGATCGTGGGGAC	-0.00164
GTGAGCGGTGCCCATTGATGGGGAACGCCTGGAAGAAAGGGGCTGTTTTCCTTTTCACTATTATTATTTTAAACTTTGATGGGCTGCTGACGTCAGCAAATATGCTTGACGCCTGTAAAGCAATTTAGCCACATCACAAGCAGAAAGCCTGTGGGATTTTCTGGTGCCCTATTTCTAGAACCTTCCCTGTTCTGACCATTTGAAGGTGCTTATTTAGTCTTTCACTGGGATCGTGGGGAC	0.0367
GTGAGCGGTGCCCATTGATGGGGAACATCTTCCCCCTCTTCCTTGCCCCACCAGCTCACCTTCCCGGGTTATTTGCAGATAGGAAAATAAATAAAGCCGGCATTCGTTAACCCTCTTCTGGCGCAAACTGCTGTTTGCTCTGGATGAATCATGGTCCTTTGGCGACGCCAGGCTCCGGGAGAAAAAAAAACCGTGTCAGGGCCATGATCCGGGGTGGCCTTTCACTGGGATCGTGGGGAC	0.325
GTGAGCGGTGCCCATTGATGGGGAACATCTTCCCCCTCTTCCTTGCCCCACCAGCTCACCTACGGGGGTTATTTGCACAAAGGAAAATAAATAAAGCCGGCATTCGTTAACCCTCTTCACGCGCATACTGCTGTTTGCTCTGGATCTAACATGGTCCTTTGGCGAGGCGTGGCTCCGGGAGAGCAAAGCACCGTGTCAGGGCCATGATCCGGGGTGGCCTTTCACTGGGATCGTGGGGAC	0.383
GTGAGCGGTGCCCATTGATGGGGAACATCTTCCCCCTCTTCCTTGCCCCTGACCAGTCCACCTGCTCCGTATTTGCAGATAGGAAAATAAATAAAGCCGGCATTCGTTAACCCTCTTCTGGCGCAAACTGCTGTTTGCTCTGGATGAATCATGGTCCTTTGGCGACGCCAGGCTCCGGGAGAGCAAAGCACCGTGTCAGGGCCATGATCCGGGGTGGCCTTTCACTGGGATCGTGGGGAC	0.341

Study 4
Target: CCNE1, cyclin fold, Cln2 fusion (human)
Technique: yeast growth competition, sequencing
Medium: yeast
Notes: weak parent motif
Baseline: not given
Direction: higher = stronger binding
Starting sequence: PKN2 docking peptide (human); DSTVTKLDFDLEP
Variant	normalised enrichment score
S2A	0.176
D8A	0.18
V4A	0.0771
P13A	0.362
K6A	0.455
D10A	0.108

Study 5
Target: Transcription factor Sp1 (SP1, Homo sapiens, UniProt P08047, residues 1-785, full length assumed)
UniProt P08047, sequence (whole entry, looked up): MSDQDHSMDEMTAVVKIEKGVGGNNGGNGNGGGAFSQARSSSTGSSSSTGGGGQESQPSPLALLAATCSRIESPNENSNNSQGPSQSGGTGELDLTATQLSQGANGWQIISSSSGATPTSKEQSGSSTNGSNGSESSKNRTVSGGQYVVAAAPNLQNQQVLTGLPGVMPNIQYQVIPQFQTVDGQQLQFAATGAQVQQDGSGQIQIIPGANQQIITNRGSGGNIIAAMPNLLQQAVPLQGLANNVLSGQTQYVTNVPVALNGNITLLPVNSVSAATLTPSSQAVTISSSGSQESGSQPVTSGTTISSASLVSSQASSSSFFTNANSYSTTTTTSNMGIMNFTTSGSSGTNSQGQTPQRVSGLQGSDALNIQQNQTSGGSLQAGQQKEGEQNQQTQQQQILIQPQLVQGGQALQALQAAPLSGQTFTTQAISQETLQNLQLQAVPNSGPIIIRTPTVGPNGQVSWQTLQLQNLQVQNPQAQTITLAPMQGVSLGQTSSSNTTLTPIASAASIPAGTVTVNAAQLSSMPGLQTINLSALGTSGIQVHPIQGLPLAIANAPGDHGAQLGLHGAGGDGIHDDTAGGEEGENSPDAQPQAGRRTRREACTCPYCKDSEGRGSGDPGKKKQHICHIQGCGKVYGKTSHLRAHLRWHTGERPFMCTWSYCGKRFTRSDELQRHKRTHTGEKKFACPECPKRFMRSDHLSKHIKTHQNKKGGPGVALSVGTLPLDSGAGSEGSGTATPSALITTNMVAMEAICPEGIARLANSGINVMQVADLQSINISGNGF
Technique: protein-binding microarray
Molecule type: double-stranded DNA, one strand shown
Medium: in vitro
Tested at: not given
Notes: k-mer, scored over probes, only values ≥0.25
Direction: higher = stronger binding
Sequence	E-score
CGTCCTCC	0.257
CACCCTCC	0.367
CCGCCCAG	0.302
AGTGGGCG	0.45
AAACTTGC	0.256
ATGCATTA	0.281
CCAGCCCC	0.274
GAGGGGTA	0.323
ATGGGGTG	0.368
GTCGCGAC	0.297
CACGAACA	0.261
GTATCTAA	0.283
GATACATA	0.261
ATGCATCA	0.296
GGGGAGGA	0.442
CTCCCTCC	0.273
ACACCCAT	0.326
AACCCACT	0.254
GCCCCTCC	0.488
CCTGCCCC	0.297
ATGACGCA	0.265
CAATACCC	0.262

For quick reference, copied from above (study 5):
Sequence	E-score
GTCGCGAC	0.297
CGTCCTCC	0.257
GAGGGGTA	0.323
GTATCTAA	0.283
ATGCATCA	0.296
